Measured values of several laboratories.
Values joined by “and” are separate records of one study, mostly repeats; a detail may differ. Numbers after ± are the reported error.

Compound | test | test system | setting | how to read | endpoint | result
O=C1NC2(CC2)COc2ncc(F)cc2[C@H]2COCCN2c2ccn3ncc1c3n2 |  | Sprague-Dawley rat, male, serum | oral, 20 mg/kg/day, 4 weeks daily, end of recovery period |  | total cholesterol | 1.2 ± 0.2 mmol/L
CCCCCCCCCCCCCCCC(=O)N[C@@H](CCC(=O)NCCOCCOCCC(=O)NCCOCCOCCC(=O)NCCCC[C@H](NC(=O)[C@H](CC(=O)O)NC(=O)[C@H](CC(C)C)NC(=O)[C@H](Cc1ccc(O)cc1)NC(=O)[C@H](CCCCN)NC(=O)[C@H](CO)NC(=O)[C@H](Cc1ccc(O)cc1)NC(=O)[C@H](CC(=O)O)NC(=O)[C@H](CO)NC(=O)[C@@H](NC(=O)[C@H](Cc1ccccc1)NC(=O)[C@@H](NC(=O)CNC(=O)[C@H](CCC(N)=O)NC(=O)[C@@H](CO)NC(=O)[C@@H](N)Cc1c[nH]cn1)[C@@H](C)O)[C@@H](C)O)C(=O)N[C@@H](CCCNC(=N)N)C(=O)N[C@@H](CCCNC(=N)N)C(=O)N[C@@H](C)C(=O)N[C@@H](CCC(N)=O)C(=O)N[C@@H](CC(=O)O)C(=O)N[C@@H](Cc1ccccc1)C(=O)N[C@H](C(=O)N[C@@H](CCC(N)=O)C(=O)N[C@@H](Cc1c[nH]c2ccccc12)C(=O)N[C@@H](CC(C)C)C(=O)N[C@@H](CC(C)C)C(=O)N[C@@H](CC(N)=O)C(=O)N[C@H](C(=O)NCC(=O)NCC(=O)N1CCC[C@H]1C(=O)N[C@@H](CO)C(=O)N[C@@H](CO)C(=O)NCC(=O)N[C@@H](C)C(=O)N1CCC[C@H]1C(=O)N1CCC[C@H]1C(=O)N1CCC[C@H]1C(=O)N[C@@H](CO)C(N)=O)[C@@H](C)O)C(C)C)C(=O)O | measured: AST | rhesus monkey, male | subcutaneous, 20 µg/kg once daily, 28 days |  | serum enzyme activity | 37.6 ± 5.9 U/L
COc1ccc(CNc2ccc3c(c2)S(=O)(=O)C=C3)cc1 |  | male C57BL/6 mice, blood | intraperitoneal, 10 mg/kg, day 8, group average |  | red cell distribution width SD | 34.9 fL
COc1cc2ncnc(Oc3ccc(Nc4nccc5[nH]cc(-c6ccc(F)cc6)c(=O)c45)cc3F)c2cc1OC |  | rat, Sprague-Dawley | oral, 20 mg/kg/day, 28-day repeat dose, MTD |  | AUC | 12900 µg·h/mL
CC(C)=CCC/C(C)=C\CCn1cc(CC(P(=O)(O)O)P(=O)(O)O)nn1 |  | mouse CD-1, bile | intravenous, 0.3 mg/kg, 8 h |  | concentration | 5750 ± 2850 ng/mL
CSCC[C@H](NC(=O)CNC(=O)[C@H](CCCCN)NC(=O)[C@H](CC(C)C)NC(=O)[C@@H]1CCCN1C(=O)[C@H](CO)NC(=O)[C@H](Cc1c[nH]cn1)NC(=O)[C@H](Cc1c[nH]c2ccccc12)NC(=O)[C@H](CCCNC(=N)N)NC(=O)[C@H](CC(C)C)NC(=O)[C@H](CCCNC(=N)N)NC(=O)[C@H](Cc1c[nH]c2ccccc12)NC(=O)[C@H](CS)NC(=O)CCCCCNC(=O)CN1CCN(CC(=O)O)CCN(CC(=O)O)CCN(CC(=O)O)CC1)C(=O)O [copper-64 labelled] | ex vivo biodistribution | male C57BL/6J mice, spleen | intravenous, 1.85 MBq, 30 h, B16-F10 tumour-bearing |  | tissue uptake | 1.84 %ID/g
CC(C)C[C@H](NC(=O)[C@H](Cc1ccc(O)cc1)NC(=O)[C@H](Cc1c[nH]cn1)NC(=O)[C@H](CCCCN)NC(=O)[C@H](CC(C)C)NC(=O)[C@H](C)NC(=O)[C@H](CC(C)C)NC(=O)[C@H](CCCCN)NC(=O)CNC(=O)[C@@H](NC(=O)[C@@H](NC(=O)[C@H](CCCCN)NC(=O)[C@@H](NC(=O)[C@H](CCC(=O)O)NC(=O)[C@H](C)NC(=O)[C@H](CCCCN)NC(=O)[C@H](CCCCN)NC(=O)[C@H](CC(C)C)NC(=O)[C@H](CC(C)C)NC(=O)[C@@H](NC(=O)[C@H](CCCNC(=N)N)NC(=O)[C@H](Cc1c[nH]c2ccccc12)NC(=O)CN)[C@@H](C)O)C(C)C)[C@@H](C)O)C(C)C)C(N)=O |  | zebrafish embryos 4 hpf, E3 medium | 24 h |  | chronic toxic concentration | 5 µM
CSCC[C@H](N)C(=O)N[C@@H](C)C(=O)N[C@@H](CCCNC(=N)N)C(=O)N[C@@H](CCCNC(=N)N)C(=O)N[C@@H](CC(=O)O)C(=O)N[C@@H](CCCCN)C(=O)N[C@H](C(=O)N[C@@H](CC(=O)O)C(=O)N[C@@H](Cc1ccccc1)C(=O)N[C@@H](C)C(=O)N[C@@H](CCCNC(=N)N)C(=O)N[C@@H](CCCNC(=N)N)C(=O)N[C@@H](CCCNC(=N)N)C(=O)N[C@@H](CCCNC(=N)N)C(=O)NCCCCCC(=O)NCCCCC(NC(=O)CCCCCNC(=O)[C@H](CCCNC(=N)N)NC(=O)[C@H](CCCNC(=N)N)NC(=O)[C@H](CCCNC(=N)N)NC(=O)[C@H](CCCNC(=N)N)NC(=O)[C@H](C)NC(=O)[C@H](Cc1ccccc1)NC(=O)[C@H](CC(=O)O)NC(=O)[C@@H](NC(=O)[C@H](CCCCN)NC(=O)[C@H](CC(=O)O)NC(=O)[C@H](CCCNC(=N)N)NC(=O)[C@H](CCCNC(=N)N)NC(=O)[C@H](C)NC(=O)[C@@H](N)CCSC)[C@@H](C)O)C(=O)NCCCCC(NC(=O)C(CCCCNC(=O)CCCCCNC(=O)[C@H](CCCNC(=N)N)NC(=O)[C@H](CCCNC(=N)N)NC(=O)[C@H](CCCNC(=N)N)NC(=O)[C@H](CCCNC(=N)N)NC(=O)[C@H](C)NC(=O)[C@H](Cc1ccccc1)NC(=O)[C@H](CC(=O)O)NC(=O)[C@@H](NC(=O)[C@H](CCCCN)NC(=O)[C@H](CC(=O)O)NC(=O)[C@H](CCCNC(=N)N)NC(=O)[C@H](CCCNC(=N)N)NC(=O)[C@H](C)NC(=O)[C@@H](N)CCSC)[C@@H](C)O)NC(=O)CCCCCNC(=O)[C@H](CCCNC(=N)N)NC(=O)[C@H](CCCNC(=N)N)NC(=O)[C@H](CCCNC(=N)N)NC(=O)[C@H](CCCNC(=N)N)NC(=O)[C@H](C)NC(=O)[C@H](Cc1ccccc1)NC(=O)[C@H](CC(=O)O)NC(=O)[C@@H](NC(=O)[C@H](CCCCN)NC(=O)[C@H](CC(=O)O)NC(=O)[C@H](CCCNC(=N)N)NC(=O)[C@H](CCCNC(=N)N)NC(=O)[C@H](C)NC(=O)[C@@H](N)CCSC)[C@@H](C)O)C(N)=O)[C@@H](C)O (stereo partly drawn) |  | C57BL/6 mouse female, colon | dose not given, 6 h | reference: total | tissue distribution | 3.29% and 4.44% and 1.52%
CC[C@H](C)[C@H](NC(=O)[C@H](Cc1ccc(O)cc1)NC(=O)[C@@H](NC(=O)[C@H](CCCNC(=N)N)NC(=O)[C@@H](N)CC(=O)O)C(C)C)C(=O)N[C@@H](Cc1c[nH]cn1)C(=O)N1CCC[C@H]1C(=O)O | noncompartmental | Beagle dogs, both sexes, plasma | subcutaneous, 10 mg/kg/day, day 27 |  | AUC | 0.79 ± 0.21 µg·h/mL
CC[C@H](C)[C@H](NC(=O)[C@H](C)NC(=O)[C@H](CCCCN)NC(=O)[C@H](CC(C)C)NC(=O)[C@@H](N)Cc1ccccc1)C(=O)N[C@@H](CCCCN)C(=O)N[C@@H](CCCCN)C(=O)N[C@@H](Cc1ccccc1)C(=O)NCC(=O)N[C@@H](CCCCN)C(=O)N[C@@H](CCC(=O)O)C(=O)N[C@@H](Cc1ccccc1)C(=O)N[C@@H](CCCCN)C(=O)N[C@@H](CCCCN)C(=O)N[C@H](C(=O)NCC(=O)N[C@@H](C)C(=O)N[C@@H](CCCCN)C(=O)N[C@@H](CC(C)C)C(=O)N[C@@H](CCCCN)C(=O)O)[C@@H](C)CC |  | human red blood cells | 8 mg/L, 1 h |  | hemolysis | -0.102% and 0.449% and 0.388%
CC(C)[C@@H]1NC(=O)CNC(=O)[C@H](CC(N)=O)NC(=O)[C@H](CCCNC(=N)N)NC(=O)[C@H](Cc2ccc(O)cc2)NC(=O)[C@H](C(C)C)NC(=O)[C@@H](NC(=O)[C@@H](NC(=O)[C@H](CC(N)=O)NC(=O)[C@H](Cc2c[nH]c3ccccc23)NC(=O)[C@H](C)NC(=O)[C@H](Cc2ccccc2)NC(=O)CNC(=O)[C@H](CCCCN)NC(=O)[C@H](Cc2ccccc2)NC(=O)[C@H](Cc2ccccc2)NC(=O)[C@H](CCCCN)NC(=O)OCC2c3ccccc3-c3ccccc32)C(C)C)CSSC[C@@H](C(=O)N[C@@H](Cc2c[nH]cn2)C(=O)N[C@@H](CCCNC(=N)N)C(=O)N[C@@H](CCCNC(=N)N)C(=O)N[C@@H](C)C(=O)N[C@@H](CC(N)=O)C(N)=O)NC(=O)[C@H](C(C)C)NC(=O)[C@H](CCCNC(=N)N)NC1=O |  | ICR mice, blood | intraductal mammary, 5 mg/kg, day 5 |  | neutrophils | 18.7 ± 0.98%
CC(=O)CCC1C(=O)NC(C(C)C)C(=O)NC(Cc2cc(O)cc(F)c2)C(=O)N2CCCC(N2)C(=O)OC(C(C)=CC=CC(=O)N2CCCCO2)CC=CC=CC(O)C(C)C1O (stereo not drawn) |  | male Sprague-Dawley rat, plasma | oral, 5 mg/kg |  | AUC | 0.142 µg·h/mL

A few entries again:
Compound | test | test system | setting | how to read | endpoint | result
CSCC[C@H](N)C(=O)N[C@@H](C)C(=O)N[C@@H](CCCNC(=N)N)C(=O)N[C@@H](CCCNC(=N)N)C(=O)N[C@@H](CC(=O)O)C(=O)N[C@@H](CCCCN)C(=O)N[C@H](C(=O)N[C@@H](CC(=O)O)C(=O)N[C@@H](Cc1ccccc1)C(=O)N[C@@H](C)C(=O)N[C@@H](CCCNC(=N)N)C(=O)N[C@@H](CCCNC(=N)N)C(=O)N[C@@H](CCCNC(=N)N)C(=O)N[C@@H](CCCNC(=N)N)C(=O)NCCCCCC(=O)NCCCCC(NC(=O)CCCCCNC(=O)[C@H](CCCNC(=N)N)NC(=O)[C@H](CCCNC(=N)N)NC(=O)[C@H](CCCNC(=N)N)NC(=O)[C@H](CCCNC(=N)N)NC(=O)[C@H](C)NC(=O)[C@H](Cc1ccccc1)NC(=O)[C@H](CC(=O)O)NC(=O)[C@@H](NC(=O)[C@H](CCCCN)NC(=O)[C@H](CC(=O)O)NC(=O)[C@H](CCCNC(=N)N)NC(=O)[C@H](CCCNC(=N)N)NC(=O)[C@H](C)NC(=O)[C@@H](N)CCSC)[C@@H](C)O)C(=O)NCCCCC(NC(=O)C(CCCCNC(=O)CCCCCNC(=O)[C@H](CCCNC(=N)N)NC(=O)[C@H](CCCNC(=N)N)NC(=O)[C@H](CCCNC(=N)N)NC(=O)[C@H](CCCNC(=N)N)NC(=O)[C@H](C)NC(=O)[C@H](Cc1ccccc1)NC(=O)[C@H](CC(=O)O)NC(=O)[C@@H](NC(=O)[C@H](CCCCN)NC(=O)[C@H](CC(=O)O)NC(=O)[C@H](CCCNC(=N)N)NC(=O)[C@H](CCCNC(=N)N)NC(=O)[C@H](C)NC(=O)[C@@H](N)CCSC)[C@@H](C)O)NC(=O)CCCCCNC(=O)[C@H](CCCNC(=N)N)NC(=O)[C@H](CCCNC(=N)N)NC(=O)[C@H](CCCNC(=N)N)NC(=O)[C@H](CCCNC(=N)N)NC(=O)[C@H](C)NC(=O)[C@H](Cc1ccccc1)NC(=O)[C@H](CC(=O)O)NC(=O)[C@@H](NC(=O)[C@H](CCCCN)NC(=O)[C@H](CC(=O)O)NC(=O)[C@H](CCCNC(=N)N)NC(=O)[C@H](CCCNC(=N)N)NC(=O)[C@H](C)NC(=O)[C@@H](N)CCSC)[C@@H](C)O)C(N)=O)[C@@H](C)O (stereo partly drawn) |  | C57BL/6 mouse female, colon | dose not given, 6 h | reference: total | tissue distribution | 3.29% and 4.44% and 1.52%
